Results from different studies.
Numbered parts are unrelated; each lists some results of a single study.

Study 1
Target: Centromere-binding protein 1, full length, N-terminal tag (CBF1, Saccharomyces cerevisiae, UniProt P17106, residues 1-351)
UniProt P17106, sequence (whole entry, looked up): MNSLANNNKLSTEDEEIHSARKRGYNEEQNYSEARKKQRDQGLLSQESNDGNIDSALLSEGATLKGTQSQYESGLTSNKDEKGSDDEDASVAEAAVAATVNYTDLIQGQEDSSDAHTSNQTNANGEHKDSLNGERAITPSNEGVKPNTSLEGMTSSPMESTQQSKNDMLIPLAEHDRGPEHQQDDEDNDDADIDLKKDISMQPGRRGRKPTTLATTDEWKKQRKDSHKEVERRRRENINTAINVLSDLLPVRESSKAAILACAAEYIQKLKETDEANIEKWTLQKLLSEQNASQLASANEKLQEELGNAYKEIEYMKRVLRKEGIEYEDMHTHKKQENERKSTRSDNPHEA
Method: protein-binding microarray
Form: double-stranded DNA, one strand shown
Sample: in vitro
Tested at: 0.8 µM
Notes: whole 60-bp probe, no competitor
Direction: higher = stronger binding
Constant ends, left off below: … GTCTTGATTCGCTTGACGCTGCTG
Sequence	fluorescence intensity [a.u.]
GAACCCTTCGTGAAACACGTGGGATACCGGTTATAG	2360
CTATGGCTCAGTAACCTCGTGATAGAAAAAGGGTTC	2430
GAAAACATTATATGTCACCTCTTCATCCTAATGTAG	539
CCTAACTACTATAGTTGTGTGACATAGCTTCGTACA	549
CTACTGTACATACTACACGTTATAGCGTTAACATTC	579
GAACAAAGACTCCGTAACATCACAGAGAACTTTTAG	552
CCTAACTACTATACACGTGCGACATAGCTTCGTACA	4900
CTAAAAAACAATGGAAACATCAGAAAGATATTTTTC	907
GAAAAAAATGTTCAGCACGTTGATCTTGAAAGCTAG	615
CTAAATGGTAATCAAAACGTGATCGCTTATATTTTC	2530

Study 2
Target: Sal-like protein 4, full length isoform A (SALL4, Homo sapiens, UniProt Q9UJQ4, residues 1-1053)
UniProt Q9UJQ4, sequence (whole entry, looked up): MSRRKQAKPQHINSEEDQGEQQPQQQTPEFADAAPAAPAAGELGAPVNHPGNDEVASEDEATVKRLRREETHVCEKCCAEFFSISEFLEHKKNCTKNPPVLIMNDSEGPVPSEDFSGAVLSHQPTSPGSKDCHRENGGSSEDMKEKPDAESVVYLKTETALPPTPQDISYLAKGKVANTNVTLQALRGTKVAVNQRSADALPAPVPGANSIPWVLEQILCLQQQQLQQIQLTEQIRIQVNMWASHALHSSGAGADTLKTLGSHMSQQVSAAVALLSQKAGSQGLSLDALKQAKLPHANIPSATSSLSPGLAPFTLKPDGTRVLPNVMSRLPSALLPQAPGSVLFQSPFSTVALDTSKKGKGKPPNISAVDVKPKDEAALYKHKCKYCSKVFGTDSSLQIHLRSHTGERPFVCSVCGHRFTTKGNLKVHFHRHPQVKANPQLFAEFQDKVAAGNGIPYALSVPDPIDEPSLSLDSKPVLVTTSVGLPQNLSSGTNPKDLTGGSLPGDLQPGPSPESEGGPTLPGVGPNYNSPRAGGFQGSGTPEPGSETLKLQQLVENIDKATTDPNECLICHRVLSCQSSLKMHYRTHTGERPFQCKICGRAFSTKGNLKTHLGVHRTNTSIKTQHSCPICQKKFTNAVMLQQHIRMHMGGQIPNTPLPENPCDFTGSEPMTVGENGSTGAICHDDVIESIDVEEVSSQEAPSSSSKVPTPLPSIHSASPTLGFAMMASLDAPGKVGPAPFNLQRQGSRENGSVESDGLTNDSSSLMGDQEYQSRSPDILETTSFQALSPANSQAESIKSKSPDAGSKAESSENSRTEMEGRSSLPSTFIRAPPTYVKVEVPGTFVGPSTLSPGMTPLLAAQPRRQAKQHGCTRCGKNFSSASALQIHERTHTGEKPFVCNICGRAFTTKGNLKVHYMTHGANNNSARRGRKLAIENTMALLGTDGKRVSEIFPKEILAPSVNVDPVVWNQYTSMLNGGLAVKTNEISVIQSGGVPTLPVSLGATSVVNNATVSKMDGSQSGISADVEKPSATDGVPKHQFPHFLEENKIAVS
Method: universal PBM
Form: double-stranded DNA, one strand shown
Sample: in vitro
Tested at: 600 nM
Notes: 8-mer, flanks averaged, mean of replicates
Direction: higher = stronger binding
Sequence	E-score
GCCGTTAA	-0.0675
CGAGCCTA	-0.125
CTCTTTAA	0.0657
AGCCTACA	-0.0314
CGAGAACG	-0.0592
CCCGTGAG	-0.301
CAAGTGAA	0.131

Study 3
Target: Ras GTPase-activating protein-binding protein 1, RRM domain (G3BP1, Homo sapiens, UniProt Q13283)
UniProt Q13283, sequence (whole entry, looked up): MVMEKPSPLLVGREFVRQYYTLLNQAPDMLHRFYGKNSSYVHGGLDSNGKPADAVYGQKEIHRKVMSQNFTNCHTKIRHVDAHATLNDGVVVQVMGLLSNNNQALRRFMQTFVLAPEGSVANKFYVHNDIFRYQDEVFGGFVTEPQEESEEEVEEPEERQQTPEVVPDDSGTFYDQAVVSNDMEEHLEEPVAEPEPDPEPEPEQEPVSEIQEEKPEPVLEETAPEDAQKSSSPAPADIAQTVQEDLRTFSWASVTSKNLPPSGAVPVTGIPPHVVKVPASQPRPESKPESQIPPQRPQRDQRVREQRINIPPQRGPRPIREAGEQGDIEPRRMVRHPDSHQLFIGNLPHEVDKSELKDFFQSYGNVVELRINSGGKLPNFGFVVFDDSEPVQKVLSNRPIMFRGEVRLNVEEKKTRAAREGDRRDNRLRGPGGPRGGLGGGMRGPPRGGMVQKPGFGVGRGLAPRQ
Method: RNA Bind-n-Seq
Form: RNA
Sample: in vitro
Tested at: 1 µM
Notes: whole 134-nt RNA, ends assumed
Together with: 150 mM KCl
Baseline: input library
Direction: higher = stronger binding
Constant ends, left off below: GGGAGUUCUACAGUCCGACGAUC … UGGAAUUCUCGGGUGUCAAGG
Sequence	log2 enrichment
UUGGCUCGAGAGAUUGAAUCAAGCCCCCAGUACCGCCUACGGAUCGCCAUGGAGAACGACGAUGGGCGCACUGAAGAGGAGAAGCACAGU	0.0116
AAGUCCUGUGCUACACAUCGUAUGUACCGAAUCGGGGUGGGGAAAAAGGGGAGGGGAAAGUAUUAUGUUACGCCGUUCGGAUCUGCACUU	0.804
CUCAAGUCCUGUGCUACACAUCGUAUGUACCGAAUCGGGGUGGGGUGGGUGGGGAAAGUAUUAUGUUACGCCGUUCGGAUCUGCACUUCC	0.126
UGGACAUGGAUUUUCAAGCCUACUUAGCUUCCUCUAGUGAAGAUGAAGAGGAGAUAGAAGAGGAGCUACAAGGUAUUGUUAAUCUUUCAG	-0.0684
GCAGGAAGUAAAAACAAAUGCAAAUGCUUCGGAUAGUGGCAGGGGUGGGGGUUGCUAAGGAAAGGGUGGGAUGGGAGUGGGUAAAGAGUU	1.29
UGGCCCUGGUGGCAUGCGGGGGGGAAGAGGUGGCCUCAUGGAUCGUGGUGGUCCCGGUGGAAUGUUCAGAGGUGGCCGUGGUGGAGACAG	0.891
UGGCCCUGGUGGCAUGCGGGGAGGAAGAGCUGGCCUCAUGGAUCGUGGUGGUCCCGGUGGAAUGUUCAGAGGUGGCCGUGGUGGAGACAG	0.966

Other studies, line by line
Molecule	target	assay	test system	conditions	how to read	quantity	value
PhoQ, residues 284 288 289 292 302 303 AMDMFI	PhoP, residues 12 14 15 18 19 STWGI (Escherichia coli, UniProt P23836)	Sort-seq, measured: YFP reporter	E. coli	PhoQ-PhoP variant library, together with: 10 µM Mg2+	baseline: high Mg2+ state, higher = stronger signaling	fold induction	0.992

A few entries again (study 2):
Sequence	E-score
CTCTTTAA	0.0657
AGCCTACA	-0.0314
CGAGAACG	-0.0592
